# Measured values gathered from unrelated publications.
# Protocols differ between the studies behind these lines. Numbers after ± are the reported error.
Structure (SMILES),assay,test system,setting,IC50
O=C1C(Cl)=C(Nc2ccc(S(=O)(=O)Nc3ccccn3)cc2)C(=O)c2ccccc21,"cell viability, MTT","primary multiple myeloma cells, patients",72 h,1.6 ± 0.32 µM
N=C(N)NCCC[C@H](NC(=O)[C@@H]1CCCN1C(=O)CNC(=O)[C@@H](N)Cc1c[nH]c2ccccc12)C(=O)O,"platelet aggregation, inhibitor",rat platelet-rich plasma,"5 min preincubation, 37 °C, with: ADP 0.1 mM",~209 µM
NC[C@H]1O[C@H](O[C@H]2[C@H](O)[C@@H](O[C@H]3O[C@H](CO)[C@@H](O)[C@H](N)[C@H]3O)[C@H](N)C[C@@H]2N)[C@H](N)C[C@@H]1O,"[14C]-phenylalanine incorporation, inhibitor, (UUU)12-directed cell-free translation","M. smegmatis 70S ribosomes, human cytosolic hybrid decoding site","60 min, 37 °C",> 500 µM
C=C(C)[C@@H]1CCC(CO)=C[C@H]1c1c(O)cc(CCCCC)cc1O,"nicotine C-oxidation to cotinine, inhibitor",pooled human liver microsomes,with: nicotine 500 µM,2 ± 0.49 µM
CNC(C)C1CCC(N)C(OC2C(N)CC(N)C(OC3OCC(C)(O)C(NC)C3O)C2O)O1 (centres unmarked),"[14C]-phenylalanine incorporation, inhibitor, (UUU)12-directed cell-free translation",Mycolicibacterium smegmatis wild-type 70S ribosomes,"60 min, 37 °C",0.7 µM
CO/C(=C/C(N)=O)[C@H](C)[C@H](/C=C/c1csc(-c2csc([C@@H](C)/C=C/C=C/C(C)C)n2)n1)OC,"succinate-dependent oxygen uptake, inhibitor",rat liver mitochondria,with: succinate 15 mM,0.0165 µM
C=C1[C@@H](O)C[C@H]2C(C)(C)CCC[C@]2(C)[C@H]1C[C@H](O)[C@H]1CC(=O)NC1=O,"translation, inhibitor, item: firefly luciferase reporter",Krebs-2 cell lysate,,~5 µM
NC[C@@H]1O[C@H](O[C@H]2[C@@H](O)[C@H](O[C@@H]3[C@@H](O)[C@H](N)C[C@H](N)[C@H]3O[C@H]3O[C@H](CO)[C@@H](O)[C@H](O)[C@H]3N)O[C@@H]2CO)[C@H](N)[C@@H](O)[C@@H]1O,"luciferase synthesis, inhibitor, coupled transcription-translation","M. smegmatis 70S ribosomes, human hybrid","60 min, 37 °C",4.7 µM
NCCc1c[nH]c2ccc(O)cc12,"vasoconstriction, pressure myography",mouse third-order mesenteric arteries,with: 5-HT,0.1 µM
C=C(C)[C@@H]1CCC(C)=C[C@H]1c1c(O)cc(CCCCC)cc1O,"nicotine C-oxidation to cotinine, inhibitor",pooled human liver microsomes,with: nicotine 500 µM,0.98 ± 0.28 µM
CCCCCC(O)C=CC=O (centres unmarked),"[3H]dopamine uptake, inhibitor",rat striatal synaptosomes,,450 µM

# Some of these lines once more:
Structure (SMILES),assay,test system,setting,IC50
NC[C@H]1O[C@H](O[C@H]2[C@H](O)[C@@H](O[C@H]3O[C@H](CO)[C@@H](O)[C@H](N)[C@H]3O)[C@H](N)C[C@@H]2N)[C@H](N)C[C@@H]1O,"[14C]-phenylalanine incorporation, inhibitor, (UUU)12-directed cell-free translation","M. smegmatis 70S ribosomes, human cytosolic hybrid decoding site","60 min, 37 °C",> 500 µM
